Assay results pooled from the literature.
Several values in a cell are separate wells, animals, samples, runs or records. Numbers after ± are the reported error.

Structure (SMILES)	test	system	conditions	scale	endpoint	value
CN(CCNCc1ccncc1O)CCNCc1ccncc1O	potentiometric titration	aqueous KCl solution	1 mM, 25 °C, 0.1 M KCl	–	protonation constant logK1H	9.8
CC(C)(O)c1ncc([S@](N)(=O)=NC(=O)Nc2c3c(cc4c2CCC4)CCC3)s1	refers to: infections and infestations	healthy human	oral, dose not given, 14 days, all active multiple doses pooled	–	subjects with TEAEs	10%
CC[C@H](C)[C@@H]1NC(=O)[C@H](Cc2ccc(O)cc2)NC(=O)CCCSC[C@@H](C(=O)N(CC(=O)N[C@@H](CC(C)C)C(=O)NCC(N)=O)Cc2ccc(F)cc2)NC(=O)[C@H](CC(N)=O)NC(=O)[C@H](CCC(N)=O)NC1=O	–	healthy human, plasma	intranasal, 200 µg every 3 h, after second dose	–	Cmax	0.119 ng/mL
CN1CCC[C@]1(C)/C=C/S(=O)(=O)NC(=O)Nc1c2c(cc3c1CCC3O)CCC2 (stereo partly drawn)	–	human, plasma	oral, 12.5 mg twice daily of parent drug, day 14, metabolite of dosed drug	–	AUC(0-24)	213000 ng·h/mL
C=CC(=O)Nc1cc(Nc2nccc(-c3cn(C)c4ccccc34)n2)c(OC)cc1N(C)CCNC	storage stability	human plasma	72 h, -80 °C, low QC level	–	recovery	94.4%
Cc1nn(-c2nc3c(F)cc(F)cc3s2)c(O)c1C(c1ccc(C(F)(F)F)cc1)c1c(C)nn(-c2nc3c(F)cc(F)cc3s2)c1O	–	ICR mouse	oral, 50 mg/kg, 1.00 h	–	plasma concentration	70900 ng/mL and 561 ng/mL and 106000 ng/mL
CN1C(=O)[C@@H](Cc2ccc(O)c(I)c2)NC(=O)CNC(=O)[C@H](Cc2ccc3ccccc3c2)NC(=O)[C@H](CCCNC(=N)N)NC(=O)[C@H]1CCCNC(=O)c1ccc(CNC(=O)CN2CCN(CC(=O)O)CCN(CC(=O)O)CCN(CC(=O)O)CC2)cc1 [lutetium-177 labelled]	1	human, extrapolated from mouse, Upper large intestine wall	–	–	total absorbed dose	0.04 mGy/MBq
C/C(N)=N/C(=N\S(=O)(=O)c1ccc(C(F)(F)F)cc1)N1C[C@H](c2ccccc2)C(c2ccc(Cl)cc2)=N1	–	female cynomolgus monkey, plasma	oral, 18 mg/kg	–	half-life	10.5 h
Cc1cc(-c2ccc(C(=O)[C@@H]3CCCC[C@H]3C(=O)Nc3cnn4c3C(=O)NCC4)cc2)[nH]n1	–	human, urine	oral, 200 mg, 0-48 h	reference: dose	cumulative radioactivity recovery	6.63% and 4.82% and 6.1% and 6.34% and 4.85% and 5.48%
Cc1noc(C)c1Cn1cc(N2C(=O)CN(Cc3cccc(OS(=O)(=O)O)c3)C2=O)cn1	–	Sprague-Dawley rat, male	oral, 30 mg/kg of parent drug, 0.25 h	–	plasma concentration	2310 ng/mL
CN1CCC[C@]1(C)/C=C/S(=O)(=O)NC(=O)Nc1c2c(cc3c1C(O)CC3)CCC2 (stereo partly drawn)	–	human, plasma	oral, 100 mg twice daily of parent drug, day 1, metabolite of dosed drug	–	AUC(0-24)	311000 ng·h/mL
O=C([O-])CN1CCN(CC(=O)[O-])CCN(CC(=O)NC[C@H]2CC[C@H](C(=O)N[C@H](Cc3cnc4ccccc4c3)C(=O)NCCCC[C@H](NC(=O)N[C@@H](CCC(=O)O)C(=O)O)C(=O)O)CC2)CCN(CC(=O)[O-])CC1.[64Cu+2]	ex vivo gamma counting	22Rv1 tumour-bearing mice, tumor	intravenous, 0.74 MBq, 6 h post-injection	–	tissue uptake	17.8 %ID/g
C[C@]12C[C@H](c3ccc(S(C)(=O)=O)cc3)C3=C4CCC(=O)C=C4CC[C@H]3[C@@H]1CC[C@@]2(O)C(F)(F)C(F)(F)F	refers to: compound (parent)	healthy human volunteers, pooled plasma	oral, 5 mg daily, day 28, 8 h	–	plasma concentration	18.9 ng/mL
O=S1(=O)CC2CCCCC2CS1 (stereo not drawn)	phase solubility, NMR	water	25 °C, added: hydroxypropyl-β-cyclodextrin 526 mM	–	solubility	57.3 mM
O=C(Nc1cnccc1-c1ccc([18F])cc1)c1ccnc(NC(=O)C2CC2)c1	–	mice, transgenic, GSK-3β, early-stage, bone	intravenous, dose not given, 120 min, added: tariquidar 15 mg/kg i.v. pre-dose	–	SUV	0.41
O=C([O-])CN1CCN(CC(=O)[O-])CCN(CC(CCCc2ccccc2[N+](=O)[O-])N(CC(=O)[O-])CC(=O)[O-])CC1.[90Y+3] (stereo not drawn)	HPLC	human serum	72 h, pH 7, 37 °C	–	intact radiolabelled complex	100%
CN1CCCNC(=O)c2cccc(c2)C(=O)NCCCN(C)CCCNc2cccc3c2C(=O)c2cccc(c2C3=O)NCCC1	–	mouse, serum	dose not given	–	ALT	27 IU/L and 30 IU/L and 31 IU/L
CCCCN1C(=O)c2cccc3c(NCCCCCCCCN4CCOCC4)ccc(c23)C1=O	–	water	pH 6.0	–	fluorescence lifetime	4.1 ns
O=c1c2ccccc2[se]n1CCCCCCn1[se]c2ccccc2c1=O	shake-flask, RP-HPLC	glycerine	24 h, 25 °C	–	solubility	40 ± 1 µg/mL
COc1ccc2nc(-c3ccc(N(C)C)cc3)sc2c1	–	PBS	free dye	–	brightness	56 M⁻¹ cm⁻¹

Structure (SMILES)	test	system	conditions	scale	endpoint	value
Cc1nc(N)nc2c1C(=O)N[C@@H](c1ccc(F)cc1-c1cccc(O[11CH3])n1)C2	ex vivo biodistribution	mice, U87 subcutaneous xenograft, urine	60 min post-injection, baseline, vehicle pre-treatment	–	tracer uptake	0.4 ± 0.2 %ID
CN1CCC[C@]1(C)/C=C/S(=O)(=O)NC(=O)Nc1c2c(cc3c1CC(O)C3)CCC2 (stereo partly drawn)	–	human, plasma	oral, 12.5 mg twice daily of parent drug, day 1, metabolite of dosed drug	–	AUC(0-24)	17400 ng·h/mL
O=C(Nc1cnccc1-c1ccc([18F])nc1)c1ccnc(NC(=O)C2CC2)c1	–	mice, transgenic, GSK-3β, early-stage, stomach	intravenous, dose not given, 120 min	–	SUV	0.362
C=Cc1ccccc1[B-]12OC(=O)C(c3ccccc3)=N[N+]1=C(CC)c1ccc(N(CC)CC)cc1O2 (stereo not drawn)	UV/vis decay	aqueous buffer	–	–	hydrolysis activation energy	23.8 kcal/mol
O=S(=O)(NCc1ccncc1)c1ccc(C2CCCCC2)cc1	–	CK-p25 mouse and littermates	intraperitoneal, 0.3 mg/kg daily, 6 weeks	–	walking speed	no effect
COc1ccc2c(c1)O[B-]1(c3ccccc3)OC(=O)C(c3ccccc3)=N[N+]1=C2 (stereo not drawn)	UV/vis decay	aqueous buffer	–	–	hydrolysis activation energy	20.2 kcal/mol
CC(=O)N([O-])CCCCCNC(=O)CCC(=O)N([O-])CCCCCNC(=O)CCC(=O)N([O-])CCCCCN.[89Zr+4]	–	mouse, pancreas	24 h	–	tracer uptake	0.03 %ID/g
C[N+](C)(CCOCCOCCOCCNC(=S)Nc1ccc(C[C@H]2CN(CC(=O)[O-])CCN(CC(=O)[O-])CCN2CC(=O)[O-])cc1)C[c-]1cccc1.[64Cu+2].[Fe+2].c1cc[cH-]c1	OLINDA, extrapolated from mouse biodistribution, refers to: urinary bladder wall	adult male human phantom	–	–	absorbed dose	0.47 µSv/MBq
COc1ccc2c(c1)C(C)(C)C(/C=C/C1=C(Oc3ccc(C(=O)NCCCCOc4cc(CN(Cc5ccccn5)Cc5ccccn5)cc(CN(Cc5ccccn5)Cc5ccccn5)c4)cc3)C(=C/C=C3/N(CCCCS(=O)(=O)[O-])c4ccc(OC)cc4C3(C)C)CCC1)=[N+]2CCCCS(=O)(=O)[O-].O=[N+]([O-])[O-].O=[N+]([O-])[O-].[99Tc+].[C-]#[O+].[C-]#[O+].[C-]#[O+].[Zn+2]	–	BALB/c mouse, Staphylococcus aureus myositis, kidneys	12 h	–	tissue uptake	2.17 %ID/g and 3.09 %ID/g and 3.59 %ID/g and 3.08 %ID/g
[2H]C([2H])([18F])Oc1cc(C(=O)OCC2CCN(CCCC)CC2)ccc1N	PET	rhesus monkey, striatum	60 min post injection	–	washout from peak	> 50%
C=C(NC(=O)c1csc(-c2nc3c(cc2O)-c2nc(cs2)C(=O)NC(C(C)O)C(=O)NC(=C(C)OC)c2nc(cs2)C(=O)NC2c4nc(cs4)C(=O)NC(COC(=O)c4c5c6c(cccc6n4O)COC(=O)C(OC4CC(C)(O)C(N(C)C)C(C)O4)C2OC5)c2nc-3cs2)n1)C(N)=O (stereo not drawn)	–	ICR mice, Streptococcus pneumoniae ATCC 49169 infected, immunocompromised, blood	intravenous, 4 mg/kg/day three times daily	–	AUC(0-t)	325 ng·h/mL
CC(C(=O)O)n1nc(Cn2cc3cc(OCC[18F])c(Cl)cc3n2)c2ccccc2c1=O (racemic)	–	rat, lung	5 min	–	tracer uptake	0.37 %ID/g
CN(C)C(=O)c1cccc(N2Cc3cn(Cc4cc(F)cc(F)c4)nc3C2)c1	metabolic stability	human, liver microsomes	–	–	half-life	1.17 h
CCc1cnc(NC(=O)c2cc(S(=O)(=O)N3CCOCC3)ccc2N(C)C2CCCC2)s1	–	mouse, serum	10 mg/kg, 3 doses	–	Phosphorus	9 mg/dL
COc1ccc2c(c1)CCn1c[n+]3c(c1-2)-c1ccc(OC)cc1CC3	–	female NSG mice, blood	6 mg/kg, day 14, 5 days per week	–	mean platelet volume	5.24 ± 0.48 fL
CN1CCC[C@]1(C)/C=C/S(=O)(=O)NC(=O)Nc1c2c(cc3c1CCC3)CC=C2	–	human, plasma	oral, 12.5 mg twice daily of parent drug, day 1, metabolite of dosed drug	–	AUC(0-24)	88000 ng·h/mL
N#Cc1cc(NC(=O)C2c3ccccc3C(=O)N(CC(F)(F)F)C2c2ccc[n+]([O-])c2)ccc1F (stereo not drawn)	–	human, plasma	concentration not given, single-dose cohorts, interim	–	maximum Cmax	2180 ng/mL
CCCCN1C(=O)c2cccc3c(NCCCN4CCOCC4)ccc(c23)C1=O	–	DMSO	–	–	fluorescence quantum yield	0.1
CCCC[C@H]1C(=O)N(C)[C@@H](CCCC)C(=O)N[C@@H](CCCCNC(=S)Nc2ccc(CN3CCN(CC(=O)O)CCN(CC(=O)O)CC3)cc2)C(=O)N[C@H](C(=O)NCC(N)=O)CSCC(=O)N[C@@H](Cc2ccc(O)cc2)C(=O)N(C)[C@@H](C)C(=O)N[C@@H](CC(N)=O)C(=O)N2CCC[C@H]2C(=O)N[C@@H](Cc2cnc[nH]2)C(=O)N[C@@H](CCC(=O)O)C(=O)N2C[C@H](O)C[C@H]2C(=O)N[C@@H](Cc2c[nH]c3ccccc23)C(=O)N[C@@H](CO)C(=O)N[C@@H](Cc2cn(CC(=O)O)c3ccccc23)C(=O)N1C [fluorine-18 labelled]	PET, refers to: PD-L1	huCD34 mouse A-375 xenograft, tumour core within 3 mm	combination therapy	–	SUV	4.34 ± 0.65 SUV
